Assay results collected from several papers.
Values joined by “and” are separate records of one study, mostly repeats; a detail may differ. ± marks the error that the study gave.
UCHL1: Ubiquitin carboxyl-terminal hydrolase isozyme L1 (UCHL1, Homo sapiens, UniProt P09936)
UniProt P09936, sequence (whole entry, looked up): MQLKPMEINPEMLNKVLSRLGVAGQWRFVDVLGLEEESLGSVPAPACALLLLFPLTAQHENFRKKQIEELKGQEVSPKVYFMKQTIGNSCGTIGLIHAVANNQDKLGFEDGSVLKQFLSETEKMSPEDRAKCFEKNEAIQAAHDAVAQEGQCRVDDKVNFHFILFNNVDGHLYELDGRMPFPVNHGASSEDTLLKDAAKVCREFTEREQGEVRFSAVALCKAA
UniProt Q07794, sequence (whole entry, looked up): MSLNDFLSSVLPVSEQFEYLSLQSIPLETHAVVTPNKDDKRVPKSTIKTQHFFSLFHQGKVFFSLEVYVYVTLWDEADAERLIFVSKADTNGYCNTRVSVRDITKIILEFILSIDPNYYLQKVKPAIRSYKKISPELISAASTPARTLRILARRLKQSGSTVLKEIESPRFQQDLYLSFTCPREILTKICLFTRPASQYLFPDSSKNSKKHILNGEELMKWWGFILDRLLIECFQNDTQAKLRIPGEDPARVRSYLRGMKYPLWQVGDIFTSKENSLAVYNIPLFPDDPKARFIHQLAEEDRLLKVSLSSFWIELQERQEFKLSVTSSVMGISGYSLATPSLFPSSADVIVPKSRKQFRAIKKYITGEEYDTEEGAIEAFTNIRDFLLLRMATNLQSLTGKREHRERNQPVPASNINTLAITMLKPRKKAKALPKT

SMILES	target or system	test	system	setting	scale	quantity	value
Cc1cc(=O)[nH]n1-c1nc(-c2ccc(Cl)cc2)c2c(NC(=O)c3ccccc3)nnc-2[nH]1	MCF7	SRB		10 µM, NCI60 single-dose screen	baseline: untreated	cell growth	88.8%
O=C(O)c1cccnc1Nc1cccc(C(F)(F)F)c1	MCF7	firefly luciferase reporter		100 µM, 6 h	baseline: vehicle	TEAD reporter activity	172 ± 5.5%
Cc1cc(N(C)NC(=O)C(C)(C)C)nc(Cl)c1C#N	UCHL1	covalent, intact protein LC-MS		12.5 µM		labelling	14.6%
COc1cccc2c1C(=O)c1c(O)c3c(c(O)c1C2=O)C[C@@](O)(C(=O)CO)C[C@@H]3O[C@H]1C[C@H](N)[C@H](O)[C@H](C)O1	MCF7	flow cytometry		4.29 µM (IC50), 72 h		cells in pre-G1 phase	28.3%
C=CC(=O)c1cccnc1Nc1cc(C(F)(F)F)ccc1OCc1ccccc1	MCF7	firefly luciferase reporter		50 µM, 6 h	baseline: vehicle	TEAD reporter activity	26.3 ± 1.4%
CC(=O)c1nn(-c2ccc(Cl)cc2)/c(=N/N=C(\C)c2ccc(NC(=O)c3ccc(Cl)cc3)cc2)s1	MCF7			0.312 µM		viability	99.9%
CCOC(=O)c1nn(-c2cccc(Cl)c2)/c(=N/N=C(\C)c2ccc(NC(=O)c3ccc(Cl)cc3)cc2)s1	MCF7	MTT		0.312 µM		cytotoxicity	89.7%
CC(=O)c1nn(-c2ccc(Cl)cc2)/c(=N/N=C(\C)c2ccc(NC(=O)c3ccccc3)cc2)s1	MCF7			5 µM		toxicity	95.6% and 95%
CCn1cc(-c2cc(Cn3ccnc3)cc3c2CCN([C@H](c2cc(OC)ccn2)C2CC2)C3=O)c(C(F)(F)F)n1	MCF7	cell growth, inhibitor		120 h		EC50	> 30 µM
CC(=O)Nc1ccc(/C(C)=N/N=c2\sc(C(C)=O)nn2-c2ccc(C)cc2)cc1	MCF7	MTT		0.625 µM		cytotoxicity	13.6%
CC(C)c1ccc(/C=C2\N=C(SCC(=O)O)N(c3ccccc3)C2=O)cc1	MCF7				baseline: BJ1 IC50 over MCF7 IC50	selectivity index	1.6
C=C1CN(S(=O)(=O)c2ccc(C)cc2)CCc2cc(-c3ccccc3)cc(n2)CCN(S(=O)(=O)c2ccc(C)cc2)C1.Cl	MCF7			4 µM, 48 h, with: progranulin 1 µg/mL		mammosphere formation	decreased
CC(=O)c1nn(-c2ccccc2Cl)/c(=N/N=C(\C)c2ccc(NC(=O)c3ccccc3)cc2)s1	MCF7	MTT		1.25 µM		cytotoxicity	93.7%
CCN1C(=O)C(C)SC1=NN=C(C)c1c(O)c2ccccc2oc1=O (centres unmarked)	MCF7	cell growth, MTT			baseline: IC50 BJ-1 over MCF7	selectivity index	> 13.5
CCCCN1CCN(c2ccc3[nH]c(-c4ccc5[nH]c(-c6ccc(C(F)(F)F)cc6)nc5c4)nc3c2)CC1	MCF7	SRB		10 µM, 48 h		growth percent	-74.3%
CCn1c(C)c(N=Nc2ccccc2)sc1=NN=C(C)c1c(O)c2ccccc2oc1=O	MCF7	cell growth, MTT			baseline: IC50 BJ-1 over MCF7	selectivity index	> 3.05
C=CC(=O)c1cccnc1Nc1cc(NC(=O)CCCCCC)ccc1OC	MCF7	firefly luciferase reporter		100 µM, 6 h	baseline: vehicle	TEAD reporter activity	11.1 ± 1.6%
COc1cccc2c1C(=O)c1c(O)c3c(c(O)c1C2=O)C[C@@](O)(C(=O)CO)C[C@@H]3O[C@H]1C[C@H](N)[C@H](O)[C@H](C)O1	MCF7	MTT		100 µM, 24 h		growth inhibition	58.2 ± 0.69%
CC(=O)c1nn(-c2ccc(C)cc2)/c(=N/N=C(\C)c2ccc(NC(=O)c3ccccc3)cc2)s1	MCF7	MTT		1.25 µM		cytotoxicity	94.7%
CC/C(=C(\c1ccc(O)cc1)c1ccc(OCCN(C)C)cc1)c1ccccc1	MCF7			0.1 µM, 5 days	baseline: vehicle	cell growth	74%
CC(=Cc1ccccc1)C=C(C#N)C(=O)Nc1nccs1	UCHL1	covalent, intact protein LC-MS		12.5 µM		labelling	16.6%
O=[N+]([O-])c1cc(Br)c(O)c(C=NNc2ccccc2)c1	MCF7	ELISA	culture supernatant	IC50, with: LPS	baseline: LPS alone	IL-6 level	11.9%
C=CC(=O)c1cccnc1Nc1cccc(C(F)(F)F)c1	MCF7	firefly luciferase reporter		25 µM, 6 h	baseline: vehicle	TEAD reporter activity	104.2 ± 0.2%
CCN(CC)c1ccc(C=NNC(=O)CSc2nc3ccccc3c(=O)n2Cc2ccc(S(N)(=O)=O)cc2)c(O)c1	MCF7	NCI five-dose screen				TGI	> 100 µM
O=[N+]([O-])c1c(Sc2ccc(Cl)cc2)ccc2nsnc12	Histone acetyltransferase RTT109, with Vps75 (Saccharomyces cerevisiae, UniProt Q07794)	enzyme activity, inhibitor, HTS, CPM-based, dose response				IC50	> 125 µM
C=CC(=O)c1cccnc1Nc1cc(F)ccc1OC	MCF7	firefly luciferase reporter		50 µM, 6 h	baseline: vehicle	TEAD reporter activity	70.3 ± 3.5%

A few entries again:
SMILES	target or system	test	system	setting	scale	quantity	value
CCCCN1CCN(c2ccc3[nH]c(-c4ccc5[nH]c(-c6ccc(C(F)(F)F)cc6)nc5c4)nc3c2)CC1	MCF7	SRB		10 µM, 48 h		growth percent	-74.3%
CCn1c(C)c(N=Nc2ccccc2)sc1=NN=C(C)c1c(O)c2ccccc2oc1=O	MCF7	cell growth, MTT			baseline: IC50 BJ-1 over MCF7	selectivity index	> 3.05
C=CC(=O)c1cccnc1Nc1cc(NC(=O)CCCCCC)ccc1OC	MCF7	firefly luciferase reporter		100 µM, 6 h	baseline: vehicle	TEAD reporter activity	11.1 ± 1.6%
